# Published values gathered from unrelated publications.
# Protocols differ between the studies behind these lines. ± gives the spread as reported.
# TARDBP: TARDBP 102-269 (Homo sapiens, UniProt Q13148)
# Fibroin-modulator-binding protein-1: Fibroin-modulator-binding protein-1 99-193 (Bombyx mori, UniProt Q5FBS0)
# SPT15/TOA1/TOA2/SUA7 1-240; 1-286; 1-122; 1-345: SPT15/TOA1/TOA2/SUA7 1-240; 1-286; 1-122; 1-345 (Saccharomyces cerevisiae)
# allR full length assumed: allR full length assumed (Escherichia coli, UniProt P0ACN4)
# Sequence of UniProt P0ACN4 (whole entry, looked up): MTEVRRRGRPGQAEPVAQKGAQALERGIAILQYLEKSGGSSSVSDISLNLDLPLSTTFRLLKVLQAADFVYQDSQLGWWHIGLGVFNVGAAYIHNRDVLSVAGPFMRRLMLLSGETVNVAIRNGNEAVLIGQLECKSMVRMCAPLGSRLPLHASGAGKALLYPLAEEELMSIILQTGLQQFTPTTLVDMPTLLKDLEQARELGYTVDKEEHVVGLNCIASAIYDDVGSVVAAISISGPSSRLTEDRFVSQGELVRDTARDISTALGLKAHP
# Sequence of UniProt Q8N884 (whole entry, unmodified, looked up): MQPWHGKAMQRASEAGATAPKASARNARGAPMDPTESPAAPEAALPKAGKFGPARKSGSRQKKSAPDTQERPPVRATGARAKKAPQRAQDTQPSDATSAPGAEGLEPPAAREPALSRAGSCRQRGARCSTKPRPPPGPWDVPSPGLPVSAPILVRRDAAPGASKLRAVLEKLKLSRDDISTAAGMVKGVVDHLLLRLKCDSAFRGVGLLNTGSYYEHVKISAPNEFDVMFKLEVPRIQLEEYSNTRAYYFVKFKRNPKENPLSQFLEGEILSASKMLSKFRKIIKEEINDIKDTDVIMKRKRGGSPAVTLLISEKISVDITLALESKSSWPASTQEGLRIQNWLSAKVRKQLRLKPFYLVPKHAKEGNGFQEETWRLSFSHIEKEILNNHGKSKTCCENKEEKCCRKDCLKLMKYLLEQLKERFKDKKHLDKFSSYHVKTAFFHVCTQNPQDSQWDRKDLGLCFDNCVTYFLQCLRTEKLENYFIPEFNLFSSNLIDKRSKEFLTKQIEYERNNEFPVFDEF
# Sequence of UniProt P32787 (whole entry, unmodified, looked up): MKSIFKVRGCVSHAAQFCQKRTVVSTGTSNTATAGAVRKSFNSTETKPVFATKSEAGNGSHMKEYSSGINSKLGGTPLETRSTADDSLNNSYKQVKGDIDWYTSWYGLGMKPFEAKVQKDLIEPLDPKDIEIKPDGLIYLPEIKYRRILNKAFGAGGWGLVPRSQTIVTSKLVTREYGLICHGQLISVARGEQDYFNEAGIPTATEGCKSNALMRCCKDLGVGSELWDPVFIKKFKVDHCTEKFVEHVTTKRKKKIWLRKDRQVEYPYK
# Sequence of UniProt P19880 (whole entry, looked up): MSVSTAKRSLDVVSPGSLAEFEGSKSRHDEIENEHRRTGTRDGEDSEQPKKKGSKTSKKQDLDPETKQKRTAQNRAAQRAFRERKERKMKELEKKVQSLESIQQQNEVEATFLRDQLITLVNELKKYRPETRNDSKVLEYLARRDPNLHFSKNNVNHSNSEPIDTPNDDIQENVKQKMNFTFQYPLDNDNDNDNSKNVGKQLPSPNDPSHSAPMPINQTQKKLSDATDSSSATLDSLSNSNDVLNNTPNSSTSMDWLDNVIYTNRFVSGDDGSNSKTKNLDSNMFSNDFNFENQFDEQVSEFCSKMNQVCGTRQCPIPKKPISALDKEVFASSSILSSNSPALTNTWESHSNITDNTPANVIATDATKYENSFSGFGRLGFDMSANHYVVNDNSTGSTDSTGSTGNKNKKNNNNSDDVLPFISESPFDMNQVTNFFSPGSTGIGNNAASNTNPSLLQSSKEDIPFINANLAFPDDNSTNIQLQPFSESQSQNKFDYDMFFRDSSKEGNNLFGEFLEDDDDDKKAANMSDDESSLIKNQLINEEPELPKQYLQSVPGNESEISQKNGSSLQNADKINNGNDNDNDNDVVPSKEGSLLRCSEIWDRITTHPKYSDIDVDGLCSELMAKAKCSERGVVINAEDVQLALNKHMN
# Sequence of UniProt P55265 (whole entry, looked up): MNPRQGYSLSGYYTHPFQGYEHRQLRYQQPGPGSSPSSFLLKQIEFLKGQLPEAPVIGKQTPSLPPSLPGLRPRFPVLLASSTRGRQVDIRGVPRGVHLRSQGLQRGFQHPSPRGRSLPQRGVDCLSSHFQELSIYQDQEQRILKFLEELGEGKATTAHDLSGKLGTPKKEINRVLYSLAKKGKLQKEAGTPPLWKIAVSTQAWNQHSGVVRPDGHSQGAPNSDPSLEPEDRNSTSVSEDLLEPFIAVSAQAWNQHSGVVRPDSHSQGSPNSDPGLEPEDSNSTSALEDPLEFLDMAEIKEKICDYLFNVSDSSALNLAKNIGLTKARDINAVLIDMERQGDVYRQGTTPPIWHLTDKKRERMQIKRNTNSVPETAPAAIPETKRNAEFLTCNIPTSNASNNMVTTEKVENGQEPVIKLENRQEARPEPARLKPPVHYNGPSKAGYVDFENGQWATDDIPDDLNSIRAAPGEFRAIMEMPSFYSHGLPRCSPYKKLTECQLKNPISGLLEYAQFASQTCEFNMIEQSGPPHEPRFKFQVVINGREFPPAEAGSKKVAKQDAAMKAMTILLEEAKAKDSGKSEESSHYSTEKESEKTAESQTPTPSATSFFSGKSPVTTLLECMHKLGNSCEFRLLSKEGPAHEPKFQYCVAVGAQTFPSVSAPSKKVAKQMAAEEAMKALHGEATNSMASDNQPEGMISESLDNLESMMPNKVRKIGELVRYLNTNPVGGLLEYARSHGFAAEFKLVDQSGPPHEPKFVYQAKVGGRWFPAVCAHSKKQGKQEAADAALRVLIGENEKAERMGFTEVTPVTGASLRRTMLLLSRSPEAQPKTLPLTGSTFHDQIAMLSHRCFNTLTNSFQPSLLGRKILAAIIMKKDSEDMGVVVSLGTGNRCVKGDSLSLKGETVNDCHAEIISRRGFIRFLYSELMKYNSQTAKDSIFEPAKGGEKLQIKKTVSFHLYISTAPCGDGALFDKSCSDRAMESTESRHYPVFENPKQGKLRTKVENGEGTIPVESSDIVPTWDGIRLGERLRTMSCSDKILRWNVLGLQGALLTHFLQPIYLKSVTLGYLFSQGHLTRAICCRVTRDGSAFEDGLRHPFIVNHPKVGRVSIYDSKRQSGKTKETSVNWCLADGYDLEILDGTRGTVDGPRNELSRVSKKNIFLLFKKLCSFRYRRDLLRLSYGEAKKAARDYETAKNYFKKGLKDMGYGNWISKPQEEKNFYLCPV
# Sequence of UniProt P42568 (whole entry, looked up): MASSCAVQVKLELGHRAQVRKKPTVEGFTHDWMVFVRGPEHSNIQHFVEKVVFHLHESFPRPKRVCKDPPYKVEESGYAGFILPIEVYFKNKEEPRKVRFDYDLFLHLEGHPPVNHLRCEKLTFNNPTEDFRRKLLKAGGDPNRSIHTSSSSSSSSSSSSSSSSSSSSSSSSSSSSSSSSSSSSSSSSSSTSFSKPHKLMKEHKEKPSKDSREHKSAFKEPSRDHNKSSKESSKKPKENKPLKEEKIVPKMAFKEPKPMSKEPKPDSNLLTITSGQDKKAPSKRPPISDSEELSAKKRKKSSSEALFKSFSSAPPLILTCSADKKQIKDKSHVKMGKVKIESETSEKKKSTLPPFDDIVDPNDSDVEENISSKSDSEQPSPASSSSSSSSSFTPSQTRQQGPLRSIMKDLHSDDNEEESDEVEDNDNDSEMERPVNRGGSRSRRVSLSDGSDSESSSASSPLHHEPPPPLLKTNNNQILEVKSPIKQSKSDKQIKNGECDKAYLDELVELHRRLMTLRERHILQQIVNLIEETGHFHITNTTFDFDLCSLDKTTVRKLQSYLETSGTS
# Sequence of UniProt P0A7G6 (whole entry, unmodified, looked up): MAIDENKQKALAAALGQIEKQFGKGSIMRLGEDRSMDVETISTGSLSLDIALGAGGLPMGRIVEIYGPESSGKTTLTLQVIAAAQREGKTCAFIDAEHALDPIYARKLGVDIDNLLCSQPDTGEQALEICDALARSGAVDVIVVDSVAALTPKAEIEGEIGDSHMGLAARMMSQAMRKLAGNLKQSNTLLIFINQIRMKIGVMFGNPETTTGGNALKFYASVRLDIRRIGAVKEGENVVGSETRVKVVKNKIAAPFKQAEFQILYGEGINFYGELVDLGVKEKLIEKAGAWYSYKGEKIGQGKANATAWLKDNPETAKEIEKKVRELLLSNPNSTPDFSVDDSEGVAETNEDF
# Sequence of UniProt Q00059 (whole entry, looked up): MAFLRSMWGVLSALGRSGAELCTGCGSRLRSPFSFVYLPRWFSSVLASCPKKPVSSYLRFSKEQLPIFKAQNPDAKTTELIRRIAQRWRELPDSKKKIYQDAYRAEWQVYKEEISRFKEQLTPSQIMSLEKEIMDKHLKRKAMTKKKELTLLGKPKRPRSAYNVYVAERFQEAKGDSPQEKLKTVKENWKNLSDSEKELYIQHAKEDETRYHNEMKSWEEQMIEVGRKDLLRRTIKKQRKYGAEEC
# Sequence of UniProt Q01844 (whole entry, looked up): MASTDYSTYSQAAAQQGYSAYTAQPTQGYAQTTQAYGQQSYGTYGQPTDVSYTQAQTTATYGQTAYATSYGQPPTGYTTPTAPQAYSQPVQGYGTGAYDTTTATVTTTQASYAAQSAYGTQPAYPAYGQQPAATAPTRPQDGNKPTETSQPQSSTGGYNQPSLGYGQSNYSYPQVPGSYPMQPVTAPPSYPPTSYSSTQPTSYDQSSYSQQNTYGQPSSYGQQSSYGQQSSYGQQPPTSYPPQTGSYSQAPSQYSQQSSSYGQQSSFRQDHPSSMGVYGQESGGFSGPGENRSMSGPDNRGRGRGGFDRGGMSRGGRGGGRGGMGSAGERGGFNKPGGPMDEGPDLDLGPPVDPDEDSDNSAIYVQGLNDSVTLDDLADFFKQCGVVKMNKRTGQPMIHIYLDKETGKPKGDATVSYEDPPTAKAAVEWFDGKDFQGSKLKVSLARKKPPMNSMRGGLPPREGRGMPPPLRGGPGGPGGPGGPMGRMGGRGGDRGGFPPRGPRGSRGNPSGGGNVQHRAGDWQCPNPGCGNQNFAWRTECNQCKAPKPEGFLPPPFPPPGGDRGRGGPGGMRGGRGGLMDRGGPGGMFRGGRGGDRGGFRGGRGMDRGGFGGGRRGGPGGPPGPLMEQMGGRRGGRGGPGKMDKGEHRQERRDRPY
Molecule,tested on,test,test system,setting,how to read,endpoint,value
GUGGUCCCCG (ssRNA),TARDBP,BLI,RNA,,,Kd,0.75 ± 0.15 µM
TAAGACACGATGCGATAAAATCTGTTTGTAAAATTTATTAAGGGTACAAATTGCCCTAGC (dsDNA),"CGAS 1-522 K394E (Homo sapiens, UniProt Q8N884)",fluorescence anisotropy,"double-stranded DNA, one strand shown",,,Kd,0.0989 ± 0.00382 µM
AAGGAAGGAAGG (dsDNA),Fibroin-modulator-binding protein-1,ITC,"double-stranded DNA, one strand shown",,,Kd,4.39 ± 0.66 µM
DNA 1 TGATTTCTTCGAAGAATATACTAAAAAATGAGCAGTCAATTCAATCGGTCC / DNA 2 GGACCGATTGACTTGACTGCTCATTTTTTAGTATATTCTTCGAAGAAATCA (dsDNA; 5'-amino-C6 primer),SPT15/TOA1/TOA2/SUA7 1-240; 1-286; 1-122; 1-345,array,double-stranded DNA,TBP:TFIIA:TFIIB ternary complex,,Kd,0.00168 ± 0.00018 µM
CGCCAATTATGGAATTATGTAATTATTCAATTATTGAATTATTTAATTCACCAATCTCCGGCGGTATGAC (dsDNA),"YAP1 full length assumed (Saccharomyces cerevisiae, UniProt P19880)",MITOMI,"double-stranded DNA, one strand shown",not purified,,Kd,2.6 ± 0.2 µM
GTGTGGTTAATATGGTGTGGTTAATATGGTGTGGTTAATATGGTGTGGTTAATATG (dsDNA),"RNJ 604-911 (Arabidopsis thaliana, UniProt Q84W56)",EMSA,"double-stranded DNA, one strand shown",,,Kd,0.298 µM
"DNA 1 TGGGTGGGTAGGGTGGGTAGGGGAGGAT / DNA 2 ATCCTCCCCTA (DNA; intramolecular parallel G4, 5' overhang, 11-bp duplex)","REV1 330-833 K388N (Homo sapiens, UniProt Q9UBZ9)",FP,folded DNA,KCl 100 mM,,Kd,0.0033 ± 0.001 µM
UUAUCUU (ssRNA),"MLLT3 1-140 (Homo sapiens, UniProt P42568)",fluorescence polarization,RNA,,,Kd,0.048 ± 0.005 µM
ACCAGCCCATATAAATGTCACTGTGCCTCTAACTCTCAAGTCAATCGGTCC (dsDNA; 5'-amino-C6 primer),SPT15/TOA1/TOA2/SUA7 1-240; 1-286; 1-122; 1-345,array,"double-stranded DNA, one strand shown",TBP:TFIIA:TFIIB ternary complex,,Kd,0.003 ± 0.00043 µM
TAAGACACGATGCGATAAAATCTG (dsDNA),"CGAS 1-522 (Homo sapiens, UniProt Q8N884)",fluorescence anisotropy,"double-stranded DNA, one strand shown",,,Kd,0.08 ± 0.0056 µM
TCCTGAAGAGGCGCCTATAAAAGGTCCTATCGTCGTCAAGTCAATCGGTCC (dsDNA; 5'-amino-C6 primer),SPT15/TOA1/TOA2/SUA7 1-240; 1-286; 1-122; 1-345,array,"double-stranded DNA, one strand shown",TBP:TFIIA:TFIIB ternary complex,,Kd,0.00369 ± 0.00083 µM
TTGACAAAATTTGAAAGTTGGAAAAATTTTCCAATAAATAGAGGTAGGAATAAAATGGCAA (dsDNA),allR full length assumed,BLI,"double-stranded DNA, one strand shown",,,Kd,0.00961 µM
TAACAGTCACCCCCCAACTAAC (dsDNA),"TFAM 43-246 (Homo sapiens, UniProt Q00059)",fluorescence polarization,"double-stranded DNA, one strand shown",,,Kd,0.0019 ± 0.0007 µM
SVWLRKETRV,human MAGI1-2/6 PDZ construct (MBP fusion),automated holdup,"peptide, purified PDZ protein","concentration not given, unit not given","baseline: biotin control resin, higher = stronger binding",binding intensity,0.878
AAGTAAGTAAGT (dsDNA),Fibroin-modulator-binding protein-1,ITC,"double-stranded DNA, one strand shown",,,Kd,5.14 ± 0.921 µM
CACCATCCACTAC / ATGTAGTTGTAGTGGATGGTGGTAC (dsDNA; primer-template),"POLH 1-432 F17S (Homo sapiens, UniProt Q9Y253)",fluorescence polarization,,with: MgCl2 5 mM,,Kd,0.026 ± 0.004 µM
GSGAGKETYY,human MAGI1-2/6 PDZ construct (MBP fusion),automated holdup,"peptide, crude extract","concentration not given, uncorrected, unit not given","baseline: biotin control resin, higher = stronger binding",binding intensity,0.0715
GATCGATCGATC (dsDNA),Fibroin-modulator-binding protein-1,ITC,"double-stranded DNA, one strand shown",,,Kd,5.28 ± 0.605 µM
TTCCTGAAGGGGGGCTATAAAAGGGGGTGGGGGCGTCAAGTCAATCGGTCC (dsDNA; 5'-amino-C6 primer),SPT15/TOA1/TOA2/SUA7 1-240; 1-286; 1-122; 1-345,array,"double-stranded DNA, one strand shown",TBP:TFIIA:TFIIB ternary complex,,Kd,0.00187 ± 0.00035 µM
AGGGAGGGAGGG (dsDNA),Fibroin-modulator-binding protein-1,ITC,"double-stranded DNA, one strand shown",,,Kd,15.3 µM
GGGAGAACUUCGACCAGAAGUAGCUCCGCGCGCACGUUACGCGAAAACGUUCUGCCCGCCUAUGUGCGCAUACAUGGAUCCUC (ssRNA; 2'-fluoro pyrimidines),integrin alphaV/beta3 31-992/27-718 (Homo sapiens),SPR,RNA,with: MnCl2 1 mM,higher = more binding,relative binding,153 RU
human alpha-enolase,,co-immunoprecipitation,human RBC cytosol,"unit not given, with: Band 3 peptide 1-56 bait",baseline: negative control,co-IP enrichment,1.6
TTAATATTATTTAATATTTTATAAAATTTTTATTAATTTAATTTTTAATTATTTT (dsDNA),"Transcriptional regulator, TrmB 1-129 (Saccharolobus islandicus, UniProt F0NIS6)",EMSA,"double-stranded DNA, one strand shown",with: Mg2+ 10 mM,,Kd,0.375 ± 0.047 µM
CTGCTGGAAACGCCGCGGTCAGCTCGGCTGCTGC (dsDNA),"EWSR1 1-656 (Homo sapiens, UniProt Q01844)",EMSA,"double-stranded DNA, one strand shown",,,Kd,0.126 ± 0.015 µM
ALMQWVSQV,Jurkat T cells expressing 1G4 TCR,"NFAT-eGFP reporter, fluorescence microscopy",peptide,"concentration not given, HLA-A*02:01 NY-ESO system",,reporter activation,22.1%
RNA 1 UAAGACACGAUGCGAUAAAAUCUGUUUGUAAAAUUUAUUAAGGGUACAAAUUGCCCUAGC / RNA 2 GCUAGGGCAAUUUGUACCCUUAAUAAAUUUUACAAACAGAUUUUAUCGCAUCGUGUCUUA (dsRNA),"CGAS 161-522 (Homo sapiens, UniProt Q8N884)",fluorescence anisotropy,double-stranded RNA,,,Kd,0.78 ± 0.44 µM
TGGATCAATCGTATAAAGAGAATTCCTGGTATGGATCAAGTCAATCGGTCC (dsDNA; 5'-amino-C6 primer),SPT15/TOA1/TOA2/SUA7 1-240; 1-286; 1-122; 1-345,array,"double-stranded DNA, one strand shown",TBP:TFIIA:TFIIB ternary complex,,Kd,0.00146 ± 0.00019 µM
TTGATAAGAGGTCATTTTTGCGGATGGCTTAGAGCTTAATTGCTGAATCTGGTGCTGTAGCTCAACATGTTTTAAATATGCAA (ssDNA),"MGM101 23-269 K218A (Saccharomyces cerevisiae, UniProt P32787)",fluorescence polarization,single-stranded DNA,,,Kd,1.2 ± 0.1 µM
VQLIMQLMPF,"HLA class I histocompatibility antigen, A alpha chain, allele A*24:02 (Homo sapiens, UniProt P04439)",conformational ELISA,peptide,concentration not given,"baseline: positive control peptide, direction not given",binding score,39.2%
TTCTGATCACCGACATGAAAGCTAACAGGAACGTTAAGTGCCTTAGCTCCGGCTACCGTGC (dsDNA),allR full length assumed,BLI,"double-stranded DNA, one strand shown",,,Kd,1.96 µM
CGGGCGGGCGGG (dsDNA),Fibroin-modulator-binding protein-1,ITC,"double-stranded DNA, one strand shown",,,Kd,6.16 µM
TATCACAGAAAAAAAGAAAATATAATAAATTAGTATCAAGTCAATCGGTCC (dsDNA; 5'-amino-C6 primer),SPT15/TOA1/TOA2/SUA7 1-240; 1-286; 1-122; 1-345,array,"double-stranded DNA, one strand shown",TBP:TFIIA:TFIIB ternary complex,,Kd,0.00401 ± 0.00104 µM
AACTAACTAACT (dsDNA),Fibroin-modulator-binding protein-1,ITC,"double-stranded DNA, one strand shown",,,Kd,1.25 ± 0.0967 µM
AGCGTCACAGACATGAAATTGGTAAGACCAATTGACTTCGGCAAGTGGCTTAAGACAGGAA (dsDNA),allR full length assumed,BLI,"double-stranded DNA, one strand shown",,,Kd,1.57 µM
TGACGTAGATTCGAATCGTTAGTGAGAGCTTAATTGCTGAATCTGGTG (ssDNA),"MGM101 23-269 (Saccharomyces cerevisiae, UniProt P32787)",fluorescence polarization,single-stranded DNA,,,Kd,0.54 ± 0.11 µM
ATTTATATTATTTATTCATATTTATATTTA (ssDNA),"APOBEC3F full length assumed D311K (Homo sapiens, UniProt Q8IUX4)",EMSA,single-stranded DNA,,,Kd,1.1 ± 0.359 µM
AUUCAUUCACAC (ssRNA),TARDBP,BLI,RNA,,,Kd,1.36 ± 0.6 µM
AGTTGGCAAGTC (dsDNA),"NFIB full length assumed (Homo sapiens, UniProt O00712)",BLI,"double-stranded DNA, one strand shown",with: Zn2+ 1 mM,,Kd,0.002 µM
CGCGCG (XNA; fully LNA blunt duplex),"ADAR 133-199 (Homo sapiens, UniProt P55265)",NMR,"modified nucleic acid, one strand shown",,,Kd,7.33 ± 3.32 µM
TTCTACGAGATCGTCATGAC (ssDNA; m6A in GATC),"recA full length assumed E39K (Escherichia coli, UniProt P0A7G6)",BLI,single-stranded DNA,with: ATPgS,,Kd,0.11 µM
GAATTCCTATATATTAATGTGGAGCTCCGTTCGTCTCAAGTCAATCGGTCC (dsDNA; 5'-amino-C6 primer),SPT15/TOA1/TOA2/SUA7 1-240; 1-286; 1-122; 1-345,array,"double-stranded DNA, one strand shown",TBP:TFIIA:TFIIB ternary complex,,Kd,0.00209 ± 0.00055 µM
GGGCUGCUGUGGCAUUUCGAUGCUGCAUCGGC (structured RNA),"DCL1 1732-1811 (Arabidopsis thaliana, UniProt Q9SP32)",fluorescence polarisation,folded RNA,,,Kd,8.9 ± 0.9 µM

# A few entries again:
Molecule,tested on,test,test system,setting,how to read,endpoint,value
TAAGACACGATGCGATAAAATCTGTTTGTAAAATTTATTAAGGGTACAAATTGCCCTAGC (dsDNA),"CGAS 1-522 K394E (Homo sapiens, UniProt Q8N884)",fluorescence anisotropy,"double-stranded DNA, one strand shown",,,Kd,0.0989 ± 0.00382 µM
AAGGAAGGAAGG (dsDNA),Fibroin-modulator-binding protein-1,ITC,"double-stranded DNA, one strand shown",,,Kd,4.39 ± 0.66 µM
DNA 1 TGATTTCTTCGAAGAATATACTAAAAAATGAGCAGTCAATTCAATCGGTCC / DNA 2 GGACCGATTGACTTGACTGCTCATTTTTTAGTATATTCTTCGAAGAAATCA (dsDNA; 5'-amino-C6 primer),SPT15/TOA1/TOA2/SUA7 1-240; 1-286; 1-122; 1-345,array,double-stranded DNA,TBP:TFIIA:TFIIB ternary complex,,Kd,0.00168 ± 0.00018 µM
CGCCAATTATGGAATTATGTAATTATTCAATTATTGAATTATTTAATTCACCAATCTCCGGCGGTATGAC (dsDNA),"YAP1 full length assumed (Saccharomyces cerevisiae, UniProt P19880)",MITOMI,"double-stranded DNA, one strand shown",not purified,,Kd,2.6 ± 0.2 µM
GTGTGGTTAATATGGTGTGGTTAATATGGTGTGGTTAATATGGTGTGGTTAATATG (dsDNA),"RNJ 604-911 (Arabidopsis thaliana, UniProt Q84W56)",EMSA,"double-stranded DNA, one strand shown",,,Kd,0.298 µM
"DNA 1 TGGGTGGGTAGGGTGGGTAGGGGAGGAT / DNA 2 ATCCTCCCCTA (DNA; intramolecular parallel G4, 5' overhang, 11-bp duplex)","REV1 330-833 K388N (Homo sapiens, UniProt Q9UBZ9)",FP,folded DNA,KCl 100 mM,,Kd,0.0033 ± 0.001 µM
